Results from different studies.
Several values in a cell are separate wells, animals, samples, runs or records. ± gives the spread as reported.
VHL with elongin B, C: von Hippel-Lindau disease tumor suppressor, with elongin B, C (VHL, Homo sapiens, UniProt P40337)
ESR1: Estrogen receptor (ESR1, Homo sapiens, UniProt P03372)
FOLH1: Glutamate carboxypeptidase 2 (FOLH1, Homo sapiens, UniProt Q04609)
IDO1: Indoleamine 2,3-dioxygenase 1 (IDO1, Homo sapiens, UniProt P14902)
ALK: ALK tyrosine kinase receptor (ALK, Homo sapiens, UniProt Q9UM73)
SYK with FCER1G: Tyrosine-protein kinase SYK, with FCER1G (SYK, Homo sapiens, UniProt P43405)
CDK9 with cyclin T1: Cyclin-dependent kinase 9, with cyclin T1 (CDK9, Homo sapiens, UniProt P50750)
APP amyloid-beta peptide: Amyloid-beta precursor protein, amyloid-beta peptide (APP, Homo sapiens, UniProt P05067)

Amino acid sequences for entries named in this document (tags omitted). Residues count along the entry.
UniProt Q04609, whole entry: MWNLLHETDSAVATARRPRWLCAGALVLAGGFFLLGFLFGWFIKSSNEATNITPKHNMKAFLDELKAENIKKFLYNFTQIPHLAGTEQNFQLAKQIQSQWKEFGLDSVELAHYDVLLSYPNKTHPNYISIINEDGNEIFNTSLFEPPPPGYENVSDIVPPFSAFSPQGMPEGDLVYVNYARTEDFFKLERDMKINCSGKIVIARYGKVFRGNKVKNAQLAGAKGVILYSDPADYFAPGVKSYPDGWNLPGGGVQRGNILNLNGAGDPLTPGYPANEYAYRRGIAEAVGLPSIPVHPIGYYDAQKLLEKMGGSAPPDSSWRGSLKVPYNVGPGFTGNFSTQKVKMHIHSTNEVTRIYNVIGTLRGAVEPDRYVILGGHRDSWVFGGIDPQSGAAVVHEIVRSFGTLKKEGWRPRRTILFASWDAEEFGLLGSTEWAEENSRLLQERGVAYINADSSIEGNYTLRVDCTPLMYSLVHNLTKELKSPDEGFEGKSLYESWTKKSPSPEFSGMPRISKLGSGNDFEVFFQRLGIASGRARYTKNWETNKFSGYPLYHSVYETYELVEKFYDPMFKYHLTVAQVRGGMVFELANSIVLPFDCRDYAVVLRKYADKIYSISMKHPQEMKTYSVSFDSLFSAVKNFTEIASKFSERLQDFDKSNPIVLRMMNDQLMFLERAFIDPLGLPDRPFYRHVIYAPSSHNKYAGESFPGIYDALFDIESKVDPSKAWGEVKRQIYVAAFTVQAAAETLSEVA
UniProt P14902, whole entry: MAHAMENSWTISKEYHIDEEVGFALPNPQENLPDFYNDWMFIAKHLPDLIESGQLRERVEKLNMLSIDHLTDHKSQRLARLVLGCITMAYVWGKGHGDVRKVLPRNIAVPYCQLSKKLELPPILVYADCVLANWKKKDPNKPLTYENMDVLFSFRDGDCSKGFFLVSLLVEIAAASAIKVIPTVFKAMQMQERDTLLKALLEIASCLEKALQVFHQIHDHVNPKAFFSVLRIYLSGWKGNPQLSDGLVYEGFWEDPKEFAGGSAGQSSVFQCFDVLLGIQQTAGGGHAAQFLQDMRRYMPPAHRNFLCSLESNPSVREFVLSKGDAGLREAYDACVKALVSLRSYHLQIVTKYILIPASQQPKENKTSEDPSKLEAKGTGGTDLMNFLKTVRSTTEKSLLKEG
UniProt Q9UM73, whole entry, looked up: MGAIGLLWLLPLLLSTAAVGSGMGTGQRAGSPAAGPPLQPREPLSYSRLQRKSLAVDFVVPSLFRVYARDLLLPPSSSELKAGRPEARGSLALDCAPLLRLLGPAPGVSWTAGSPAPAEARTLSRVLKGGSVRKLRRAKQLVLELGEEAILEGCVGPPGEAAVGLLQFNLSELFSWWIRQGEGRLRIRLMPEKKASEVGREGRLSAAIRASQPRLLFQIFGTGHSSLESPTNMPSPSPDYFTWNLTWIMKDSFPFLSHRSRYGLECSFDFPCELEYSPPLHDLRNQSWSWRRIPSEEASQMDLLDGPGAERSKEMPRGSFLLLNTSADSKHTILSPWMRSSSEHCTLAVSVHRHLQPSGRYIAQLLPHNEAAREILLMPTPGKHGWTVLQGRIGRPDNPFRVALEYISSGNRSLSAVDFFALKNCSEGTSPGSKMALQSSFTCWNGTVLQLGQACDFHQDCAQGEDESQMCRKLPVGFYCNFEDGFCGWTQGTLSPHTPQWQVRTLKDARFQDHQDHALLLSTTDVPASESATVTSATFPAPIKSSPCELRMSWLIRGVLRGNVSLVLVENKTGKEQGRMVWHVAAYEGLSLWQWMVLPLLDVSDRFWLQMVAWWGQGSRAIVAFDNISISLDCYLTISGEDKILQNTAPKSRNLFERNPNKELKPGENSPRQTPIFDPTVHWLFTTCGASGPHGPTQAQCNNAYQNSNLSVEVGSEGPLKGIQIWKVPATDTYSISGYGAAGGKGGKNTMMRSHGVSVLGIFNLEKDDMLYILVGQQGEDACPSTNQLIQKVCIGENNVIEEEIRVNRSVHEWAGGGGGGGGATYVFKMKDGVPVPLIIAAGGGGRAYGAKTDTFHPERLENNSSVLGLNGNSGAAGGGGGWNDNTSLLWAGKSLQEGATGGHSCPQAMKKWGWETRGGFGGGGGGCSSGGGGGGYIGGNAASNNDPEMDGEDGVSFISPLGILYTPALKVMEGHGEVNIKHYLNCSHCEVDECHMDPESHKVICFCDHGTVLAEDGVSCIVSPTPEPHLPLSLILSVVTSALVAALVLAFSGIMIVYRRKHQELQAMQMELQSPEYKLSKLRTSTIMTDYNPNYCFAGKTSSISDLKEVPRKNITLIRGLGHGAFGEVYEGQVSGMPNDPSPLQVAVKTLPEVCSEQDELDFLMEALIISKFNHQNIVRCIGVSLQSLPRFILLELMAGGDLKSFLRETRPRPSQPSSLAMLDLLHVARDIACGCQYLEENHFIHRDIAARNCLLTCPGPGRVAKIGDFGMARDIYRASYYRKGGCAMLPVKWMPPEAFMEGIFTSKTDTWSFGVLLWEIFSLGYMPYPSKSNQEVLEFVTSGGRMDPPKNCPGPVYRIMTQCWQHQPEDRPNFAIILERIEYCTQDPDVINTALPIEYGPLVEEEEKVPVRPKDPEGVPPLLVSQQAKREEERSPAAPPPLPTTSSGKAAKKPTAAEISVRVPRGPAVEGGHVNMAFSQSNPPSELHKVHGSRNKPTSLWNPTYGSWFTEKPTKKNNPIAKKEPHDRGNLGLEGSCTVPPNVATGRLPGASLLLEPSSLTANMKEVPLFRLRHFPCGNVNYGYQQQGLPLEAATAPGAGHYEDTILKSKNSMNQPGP
UniProt P50750, whole entry: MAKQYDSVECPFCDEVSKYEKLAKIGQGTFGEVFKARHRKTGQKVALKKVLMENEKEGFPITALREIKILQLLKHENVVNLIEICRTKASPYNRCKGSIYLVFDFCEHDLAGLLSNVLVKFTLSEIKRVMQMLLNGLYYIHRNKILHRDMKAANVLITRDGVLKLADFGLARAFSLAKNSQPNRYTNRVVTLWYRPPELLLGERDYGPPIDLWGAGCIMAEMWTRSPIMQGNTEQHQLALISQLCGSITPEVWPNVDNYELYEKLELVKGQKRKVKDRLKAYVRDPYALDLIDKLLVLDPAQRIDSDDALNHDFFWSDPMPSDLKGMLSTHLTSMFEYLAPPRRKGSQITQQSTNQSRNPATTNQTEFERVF
UniProt A4HTR0, 1-443: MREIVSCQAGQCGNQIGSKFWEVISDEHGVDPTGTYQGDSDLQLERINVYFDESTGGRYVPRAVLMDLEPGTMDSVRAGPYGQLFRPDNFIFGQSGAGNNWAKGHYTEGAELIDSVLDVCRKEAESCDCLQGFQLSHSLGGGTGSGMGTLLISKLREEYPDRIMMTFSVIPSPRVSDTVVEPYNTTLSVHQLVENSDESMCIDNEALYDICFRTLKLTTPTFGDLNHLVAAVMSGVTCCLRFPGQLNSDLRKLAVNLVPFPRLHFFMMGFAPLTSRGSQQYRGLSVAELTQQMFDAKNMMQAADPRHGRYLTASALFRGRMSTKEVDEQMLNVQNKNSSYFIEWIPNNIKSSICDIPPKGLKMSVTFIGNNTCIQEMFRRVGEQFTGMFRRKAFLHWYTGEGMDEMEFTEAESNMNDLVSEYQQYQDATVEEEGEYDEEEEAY
UniProt P00558, whole entry: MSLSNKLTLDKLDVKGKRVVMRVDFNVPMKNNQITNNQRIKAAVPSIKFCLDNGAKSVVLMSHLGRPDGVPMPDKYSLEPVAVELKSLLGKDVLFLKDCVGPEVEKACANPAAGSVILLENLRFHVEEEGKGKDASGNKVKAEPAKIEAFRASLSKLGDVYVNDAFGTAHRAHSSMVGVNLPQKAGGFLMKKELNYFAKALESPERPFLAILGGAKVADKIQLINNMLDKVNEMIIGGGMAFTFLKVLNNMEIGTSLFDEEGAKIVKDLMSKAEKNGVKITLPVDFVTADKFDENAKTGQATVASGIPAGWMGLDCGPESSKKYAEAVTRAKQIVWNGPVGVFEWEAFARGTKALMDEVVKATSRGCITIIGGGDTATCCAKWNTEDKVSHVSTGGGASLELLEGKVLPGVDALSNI
UniProt Q04206, whole entry: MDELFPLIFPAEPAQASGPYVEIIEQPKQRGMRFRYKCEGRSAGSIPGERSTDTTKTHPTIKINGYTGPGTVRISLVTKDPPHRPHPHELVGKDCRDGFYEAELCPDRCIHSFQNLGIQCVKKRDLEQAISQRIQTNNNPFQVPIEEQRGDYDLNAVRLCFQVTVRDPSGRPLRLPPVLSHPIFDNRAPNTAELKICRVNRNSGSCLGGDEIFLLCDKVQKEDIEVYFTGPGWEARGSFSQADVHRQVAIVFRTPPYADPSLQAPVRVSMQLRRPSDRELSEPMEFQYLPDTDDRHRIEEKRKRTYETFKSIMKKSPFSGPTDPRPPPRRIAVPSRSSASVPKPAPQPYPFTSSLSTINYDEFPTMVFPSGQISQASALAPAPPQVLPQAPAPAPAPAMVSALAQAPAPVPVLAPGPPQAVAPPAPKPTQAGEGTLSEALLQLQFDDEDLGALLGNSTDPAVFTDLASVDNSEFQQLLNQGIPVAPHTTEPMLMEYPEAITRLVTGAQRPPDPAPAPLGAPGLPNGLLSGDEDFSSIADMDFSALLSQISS
UniProt Q61009, whole entry: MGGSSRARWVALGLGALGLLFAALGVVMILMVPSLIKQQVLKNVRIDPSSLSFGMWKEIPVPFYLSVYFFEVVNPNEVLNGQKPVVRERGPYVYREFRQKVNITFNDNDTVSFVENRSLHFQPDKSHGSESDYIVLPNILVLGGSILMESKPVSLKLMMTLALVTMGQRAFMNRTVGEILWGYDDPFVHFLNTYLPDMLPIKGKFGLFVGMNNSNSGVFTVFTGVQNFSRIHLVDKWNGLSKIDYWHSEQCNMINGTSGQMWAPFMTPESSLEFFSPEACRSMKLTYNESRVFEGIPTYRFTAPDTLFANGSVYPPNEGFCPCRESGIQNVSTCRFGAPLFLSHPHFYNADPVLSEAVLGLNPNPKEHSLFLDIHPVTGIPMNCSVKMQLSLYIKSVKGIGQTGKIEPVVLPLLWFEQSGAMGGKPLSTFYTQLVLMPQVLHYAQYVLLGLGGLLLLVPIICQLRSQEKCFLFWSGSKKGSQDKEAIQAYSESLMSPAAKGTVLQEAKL
UniProt P33176, whole entry, looked up: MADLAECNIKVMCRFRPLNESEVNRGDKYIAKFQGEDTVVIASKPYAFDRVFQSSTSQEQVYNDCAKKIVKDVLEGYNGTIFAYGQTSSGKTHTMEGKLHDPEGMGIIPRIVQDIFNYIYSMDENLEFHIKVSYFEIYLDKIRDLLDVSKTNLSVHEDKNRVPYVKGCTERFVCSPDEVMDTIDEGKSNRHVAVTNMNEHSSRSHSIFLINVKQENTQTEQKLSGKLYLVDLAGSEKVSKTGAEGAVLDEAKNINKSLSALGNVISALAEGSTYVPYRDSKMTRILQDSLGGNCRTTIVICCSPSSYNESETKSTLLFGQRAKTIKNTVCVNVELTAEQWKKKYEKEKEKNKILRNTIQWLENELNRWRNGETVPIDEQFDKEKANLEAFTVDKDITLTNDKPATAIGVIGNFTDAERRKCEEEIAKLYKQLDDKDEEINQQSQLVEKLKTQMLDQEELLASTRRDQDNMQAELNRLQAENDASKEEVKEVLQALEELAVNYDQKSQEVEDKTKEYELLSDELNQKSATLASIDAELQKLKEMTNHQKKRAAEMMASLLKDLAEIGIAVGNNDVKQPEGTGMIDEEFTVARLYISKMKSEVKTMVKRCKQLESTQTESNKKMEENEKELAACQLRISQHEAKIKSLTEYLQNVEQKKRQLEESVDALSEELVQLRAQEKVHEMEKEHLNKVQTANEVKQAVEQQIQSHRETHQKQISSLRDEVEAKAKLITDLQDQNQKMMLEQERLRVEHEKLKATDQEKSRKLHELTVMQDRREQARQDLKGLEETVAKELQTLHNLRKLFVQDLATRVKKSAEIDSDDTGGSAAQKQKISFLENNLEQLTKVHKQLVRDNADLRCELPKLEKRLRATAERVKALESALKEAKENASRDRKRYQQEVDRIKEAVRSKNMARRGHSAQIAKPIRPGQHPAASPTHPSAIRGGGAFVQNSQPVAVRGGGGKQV
UniProt P28072, whole entry, looked up: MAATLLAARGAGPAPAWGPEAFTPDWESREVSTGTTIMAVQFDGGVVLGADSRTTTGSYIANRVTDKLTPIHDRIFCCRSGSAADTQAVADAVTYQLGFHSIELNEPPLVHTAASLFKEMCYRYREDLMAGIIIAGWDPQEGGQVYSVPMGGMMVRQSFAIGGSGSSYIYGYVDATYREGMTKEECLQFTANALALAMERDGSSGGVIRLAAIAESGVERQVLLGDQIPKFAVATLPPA
UniProt Q99436, whole entry, looked up: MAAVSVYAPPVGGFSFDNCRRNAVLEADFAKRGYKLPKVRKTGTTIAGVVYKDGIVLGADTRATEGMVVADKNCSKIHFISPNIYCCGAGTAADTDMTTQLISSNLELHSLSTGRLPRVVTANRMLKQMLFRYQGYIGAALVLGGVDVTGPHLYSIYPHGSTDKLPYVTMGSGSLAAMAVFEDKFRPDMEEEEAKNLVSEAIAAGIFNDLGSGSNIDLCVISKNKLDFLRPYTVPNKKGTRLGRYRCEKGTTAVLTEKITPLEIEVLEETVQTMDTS

With `O=C(NCc1ccc(Cl)cc1)[C@@H]1C[C@@H](O)CN1C(=O)c1ccncc1` the IC50 was 32000 ± 1000 nM (VHL with elongin B, C; binding, fluorescence polarization; 10% DMSO, with: FAM-HIF1α peptide tracer).
`CC(C)CNC(=O)CSc1nc2ccc(NC(=O)CSc3ccc4ccccc4c3)cc2s1` gave an IC50 of 12000 nM (ESR1; reporter gene, antagonist; HEC-1 transfected ERα luciferase reporter).
With `CC(C)OC(=O)OCOC(=O)CCC(CP(=O)(O)O)C(=O)O` (stereo not drawn) the IC50 was 1 ± 0.1 nM (FOLH1; inhibitor, radioenzymatic; with: tritiated NAAG substrate).
The IC50 of `Cc1n[nH]c(C)c1-c1ccc(C2(c3ccc(Cl)cc3)CCNCC2)cc1` is reported as 51 nM (AKT1 (Homo sapiens, UniProt P31749); kinase activity, inhibitor, radiometric HotSpot; with: ATP 10 µM).
`CCOC(=O)COC(=O)[C@@H]1C(C=O)=Cc2cc3c(cc2[C@H]1c1cc(OC)c(OC)c(OC)c1)OCO3` has an IC50 of 900 ± 100 nM (Tubulin alpha/beta heterodimer (Leishmania infantum, UniProt A0A381MCS3+A4HTR0); tubulin polymerization, inhibitor; 37 °C, with: tubulin 1.2 mg/mL).
`COc1ccc2[nH]cc(/C=C/c3cccc(OS(C)(=O)=O)c3)c2c1` gave an IC50 of over 50000 nM (IDO1; enzyme activity, inhibitor).
For `CC(C)Oc1cc(C(=O)N2CCC(N3CCN(C)CC3)CC2)ccc1Nc1ncc2c(n1)N(C(C)C)c1ccccc1C(=O)N2C`, the IC50 was 421 ± 7 nM (MAPK7 (Homo sapiens, UniProt Q13164); kinase activity).
`O=C(CC1Cc2ccccc2C1)N[C@H](CN1CCC1)[C@H](O)c1ccc2c(c1)OCCO2` gave an IC50 of 21.1 nM (UGCG (Canis lupus familiaris, UniProt A0A8I3MXG6); inhibitor, measured: glucosylceramide; MDCK; 24 h).
With `COc1ccccc1Nc1nc(-c2sc(N)nc2C)cs1` the IC50 was over 10000 nM (Protein-lysine 6-oxidase (Homo sapiens, UniProt P28300); LOX activity, inhibitor; MDA-MB-231).
`COC(=O)/C(=C/c1c[nH]c2ccc(C#N)cc12)c1ccc(F)cc1` has an IC50 of over 50000 nM (IDO1; enzyme activity, inhibitor).
The IC50 of `O=C(O)c1cc(C(=O)N[C@@H](Cc2ccc(O)cc2)C(=O)O)cc([C@H]2CCN[C@@H]2C(=O)O)c1` is reported as 9700 ± 480 nM (Glutamate receptor ionotropic, NMDA 2C, with GluN1 (Rattus norvegicus, UniProt Q00961); ion current, antagonist, two-electrode voltage clamp; Xenopus oocytes; GluN1/GluN2C, with: glycine 100 µM and glutamate 1 µM).
The IC50 of `C[C@@H]1CN(C2CCC2)CC[C@H](O[C@H]2[C@@H](O)C[C@H](O[C@H]3[C@@H](O)C[C@H](O[C@H]4CC[C@@]5(C)[C@H](CC[C@@H]6[C@@H]5C[C@@H](O)[C@]5(C)[C@@H](C7=CC(=O)OC7)CC[C@]65O)C4)O[C@@H]3C)O[C@@H]2C)O1` is reported as 134 ± 10 nM (Sodium/potassium-transporting ATPase subunit alpha-1, with beta1 subunit (ATP1A1, Homo sapiens, UniProt P05023); Na+/K+-ATPase activity, inhibitor; purified human α1β1).
With `NCCC(=O)N[C@@H](Cc1c[nH]c2ccc(O)cc12)C(=O)N[C@@H](Cc1ccc(Cl)cc1)C(=O)N[C@@H](Cc1ccncc1)C(=O)N[C@H](Cc1c[nH]c2ccccc12)C(N)=O` the IC50 was 3400 nM (Ephrin type-A receptor 4, extracellular domain (Epha4, Mus musculus, UniProt Q03137); ephrin-A5 binding, inhibitor, ELISA).
For `Cc1ncsc1-c1ccc(CNC(=O)[C@@H]2C[C@@H](O)CN2C(=O)c2cccc(Br)c2)cc1`, the IC50 was 7700 ± 400 nM (VHL with elongin B, C; binding, fluorescence polarization; 10% DMSO, with: FAM-HIF1α peptide tracer).
`COc1ccc(NC(=O)N[C@H](Cc2ccc(C#N)cc2)C(=O)NCC2(c3cccc(O)c3)CC2)cc1` has an IC50 of 2100 ± 400 nM (FPR2 (Homo sapiens, UniProt P25090); calcium mobilization; FPR2-transfected HL-60; desensitization pretreatment, with: WKYMVM 5 nM).
`CCOC(=O)c1nc2cc(Cl)c(Cl)cc2nc1N1CCN(C(N)=O)CC1` gave an IC50 of 530 ± 70 nM (PGK1 (Homo sapiens, UniProt P00558); enzyme activity, inhibitor, GAPDH-coupled; with: ATP 1.5 mM, 3-phosphoglycerate 2 mM).
With `O=C(CC1SC(=NN=Cc2ccc(O)c(O)c2)NC1=O)Nc1ccc(C(=O)O)cc1` (stereo not drawn) the IC50 was over 200000 nM (PPP3CA (Homo sapiens, UniProt Q08209); phosphatase activity, inhibitor, malachite green; with: phosphopeptide substrate at Km).
With `CC(=O)O[C@@H]1c2coc3c2[C@@](C)(C2=C(C3=O)[C@@H]3CCC(=O)[C@@]3(C)CC2)[C@H]2O[C@@H]12` the IC50 was < 10000 nM and 9120 nM (RELA (Homo sapiens, UniProt Q04206); DNA binding, inhibitor, ELISA-type binding; HeLa nuclear extract; with: TNF-α).
`CC(C)[C@H](N)c1nc2cc(-c3ccncc3)sc2c(=O)[nH]1` gave an IC50 of 29.8 ± 1.49 nM (CDC7 (Homo sapiens, UniProt O00311); enzyme activity, inhibitor).
`c1cncc(-c2ccc(-c3cccnc3)nc2)c1` gave an IC50 of 36000 nM (ALK; ELISA).
`O=C(Nc1ccc(-c2nc3ccccc3s2)cc1)C1CCCCC1` gave an IC50 of over 100000 nM (SYK with FCER1G; protein binding, inhibitor, TR-FRET).
`O=C(O)CCC(NS(=O)(=O)c1cccs1)C(=O)O` (stereo not drawn) gave an IC50 of over 100000 nM (FOLH1; enzyme activity, inhibitor, HPLC; 15 min, pH 7.4, 37 °C, 1% Triton X-100, with: 10 mM glutamate dipeptide substrate).
`O=C(NC1CCN(Cc2cc(Cl)c3cccnc3c2O)CC1)c1cccc(Cl)c1` has an IC50 of 860 nM (KCNJ13 (Homo sapiens, UniProt O60928, M125R); potassium current, inhibitor, whole-cell patch clamp; holding potential -120 mV).
`CN1CC[C@H](c2c(O)cc(O)c3c(=O)cc(-c4ccccn4)oc23)[C@H](O)C1` has an IC50 of 11.3 nM (CDK9 with cyclin T1; inhibitor; with cyclin T1, GST-CTD substrate).
For `N#Cc1ccc2[nH]cc(/C=C/c3cccc(F)c3)c2c1`, the IC50 was over 20000 nM (APP amyloid-beta peptide; Aβ42 oligomerisation, ELISA).
`CC1CN([C@H](C)CO)C(=O)c2cc(NC(=O)Cc3cn(C)c4ccccc34)ccc2OC1CN(C)S(=O)(=O)c1ccc(Cl)cc1` (stereo partly drawn) has an IC50 of 8900 nM (Scavenger receptor class B member 1 (Mus musculus, UniProt Q61009); DiI-HDL uptake, inhibitor; ldlA[mSR-BI] cells; DMSO stock solution).
The IC50 of `Cc1ccccc1CN1CCN(c2cc(N3CCCC3)nc(N3CCCC3)n2)CC1` is reported as 18 nM (Caspase-1 (CASP1, Homo sapiens, UniProt P29466); enzyme activity, inhibitor; 30 min preincubation, with: Ac-WEHD-AMC 10 µM).
For `CC(C)C[C@H](NC(=O)c1cc(C(=O)O)cc([C@H]2CCN[C@@H]2C(=O)O)c1)C(=O)O`, the IC50 was 33000 nM (AMPA receptor (rat); binding, radioligand binding; rat cortical synaptosomes; with: [3H]AMPA).
`Cc1csc(-c2ccc(-c3csnn3)cc2)n1` has an IC50 of 100000 nM (ALK; ELISA).
For `CC(=O)N(CC#Cc1cccc(C(N)=O)c1)C[C@H]1C[C@@H](n2ccc3c(Cl)ncnc32)[C@H](O)[C@@H]1O`, the IC50 was over 100000 nM (AHCY (Homo sapiens, UniProt P23526); enzyme activity, inhibitor, fluorescence).
`O=C(OC(C(F)(F)F)C(F)(F)F)N1CCc2c(Br)cccc2C1` gave an IC50 of 10 ± 0.5 nM (ABHD6 (Homo sapiens, UniProt Q9BV23); inhibitor, fluorescence).
For `COc1ccc(C(CCc2ccc(O)cc2OC)c2cc(CCC(=O)c3ccc(O)cc3)c(OC)cc2O)cc1` (racemic), the IC50 was 850 ± 150 nM (ALOX5 (Homo sapiens, UniProt P09917); 5-LOX product formation, RP-HPLC; human PMNL; with: A23187 and arachidonic acid).
`N#Cc1ccc2[nH]cc(/C=C/c3c[nH]c4ccccc34)c2c1` has an IC50 of 1200 nM (IDO1; enzyme activity, inhibitor).
With `O=C(CCCCCn1c(=S)[nH]c2ccccc2c1=O)N1CCN(c2cccc(Cl)c2)CC1` the IC50 was 5200 nM (ESR1; reporter gene, coactivator binding inhibitor, luciferase reporter; HEC-1 cells transfected with ERα; partial inhibition, with: estradiol 1 nM).
`CN1CC[C@H](c2c(O)cc(O)c3c(=O)cc(-c4ccccc4F)oc23)[C@H](O)C1` gave an IC50 of over 10000 nM (SGK1 (Homo sapiens, UniProt O00141, S422D); ATP at Km).
For `O=C(Nc1ccc(-c2nc3ccc(NC(=O)C4CCCC4)cc3s2)cc1)C1CCCC1`, the IC50 was over 100000 nM (SYK with FCER1G; protein binding, inhibitor, TR-FRET).
`CN1CCN(Cc2ccc(NC(=O)c3cncc(C#Cc4cncc5ncccc45)c3)cc2C(F)(F)F)CC1` gave an IC50 of 32.1 ± 1.41 nM (Kinesin-1 heavy chain/ Tyrosine-protein kinase receptor RET (RET/KIF5B, Homo sapiens, UniProt P07949+P33176, G810C); cell viability, inhibitor, CellTiter-Glo; Ba/F3 KIF5B-RET G810C).
For `O=C(O)CC[C@H](NC(=O)c1cc(C(=O)O)cc([C@H]2CCN[C@@H]2C(=O)O)c1)C(=O)O`, the IC50 was 3890 ± 220 nM (Glutamate receptor ionotropic, NMDA 2B, with GluN1 (Grin2b, Rattus norvegicus, UniProt Q00960); ion current, antagonist, two-electrode voltage clamp; Xenopus oocytes; GluN1/GluN2B, with: glycine 100 µM and glutamate 1 µM).
`NC(N)=NN=C1CCCc2cc(NC(=O)c3cc4cccc([N+](=O)[O-])c4[nH]3)ccc21` gave an IC50 of over 100000 nM (RPS6KA3 (Homo sapiens, UniProt P51812); kinase activity, inhibitor, IMAP fluorescence polarization).
For `O=[N+]([O-])c1ccc(/C=C/c2c[nH]c3ccc(F)cc23)c(F)c1`, the IC50 was 5000 nM (APP amyloid-beta peptide; Aβ42 oligomerisation, ELISA).
The IC50 of `CN1CCC[C@@H]1C(=O)N[C@@H](Cc1ccc(-c2ccccn2)cc1)B(O)O` is reported as over 10000 nM (PSMB6/PSMB7, caspase-like site (Homo sapiens, UniProt P28072+Q99436); β1c enzyme activity, inhibitor; with: Z-LLE-AMC).
With `CN1CC[C@H](c2c(O)cc(O)c3c(=O)cc(-c4ccc(C(C)(C)C)cc4)oc23)[C@H](O)C1` the IC50 was 19.3 nM (CDK9 with cyclin T1; inhibitor; with cyclin T1, GST-CTD substrate).
For `Cc1cc(O)n2nc(C(F)(F)F)c(-c3ccccc3)c2n1`, the IC50 was 520 nM (CGAS (Homo sapiens, UniProt Q8N884); enzyme activity, inhibitor, ATP depletion).
`OC[C@@H]1[C@@H](O)[C@H](O)[C@@H](O)CN1CCCCCOCc1ccc(-c2cccnc2)cc1` gave an IC50 of 2000 nM (Ugcg (Mus musculus, UniProt O88693); inhibitor, C6-NBD-ceramide in situ; RAW264.7).
With `COc1ccc(-c2nc(C(F)(F)F)nn2-c2ccc(OC)nc2)cc1` the IC50 was over 1000 nM (PTGS2 (Homo sapiens, UniProt P35354); PGE2 production, inhibitor, enzyme immunoassay; human whole blood).
